Results from different studies.
Lines come from different studies, so protocols differ. “And” joins repeats or separate records; there may be more than shown. Numbers after ± are the reported error.

Compound = CCc1c(-c2ccccc2)c(-c2ccccc2)nn1-c1ccccc1-c1cccc(OCC(=O)O)c1; system = Sprague-Dawley rat; conditions = oral, dose not given; Cmax = 1310 ng/mL and 1260 ng/mL and 2090 ng/mL
Compound = CC[C@@H]([C@H](C)O)n1ncn(-c2ccc(N3CCN(c4ccc(OC[C@@H]5CO[C@@](Cn6cncn6)(c6ccc(F)cc6F)C5)cc4)CC3)cc2)c1=O; system = Sprague-Dawley rats, plasma; conditions = oral, 40 mg/kg, together with: zanubrutinib 16 mg/kg; Cmax = 1310 ± 416 ng/mL
Compound = Cn1c(C(F)(F)F)cc(=O)n(-c2cc(Oc3cccnc3OCC(=O)O)c(Cl)cc2F)c1=O; system = Crl:CD(SD) rats, male, plasma; conditions = oral diet, 800 ppm in diet, day 1, 90-day toxicity study; Cmax = 1260 ng/mL
Compound = Cc1cccc(CNC(=O)c2cn(CCNC(=O)c3ccccc3Sc3c([N+](=O)[O-])ncn3C)c3cc4c(cc3c2=O)OC(F)(F)O4)n1; system = Sprague-Dawley rat, male, plasma; conditions = intramuscular, 3 mg/kg of parent drug; Cmax = 47.8 ± 8.6 ng/mL
Compound = CCCCCOC(=O)Nc1nc(=O)n([C@@H]2O[C@H](C)[C@@H](O)[C@H]2O)cc1F; system = Sprague-Dawley rat, plasma; conditions = oral, 200 mg/kg, together with: chitooligosaccharide 20 min before glucosamine 250 mg/kg; Cmax = 27600 ± 3060 ng/mL
Compound = CNC(=O)c1cccc(-c2ccc(O[C@H]3O[C@H](CO)[C@@H](O)[C@H](O)[C@@H]3O)c(C)c2)c1; system = male Sprague-Dawley rat, plasma; conditions = oral, 10 mg/kg, group mean; Cmax = 5 ng/mL
Compound = C=CC(=O)N1CC2CC(n3nc(-c4ccc(C(=O)Nc5ccccn5)cc4)c4c(N)ncnc43)CC2C1 (stereo not drawn); system = male Wistar rats, plasma; conditions = oral, 3 mg/kg; Cmax = 649 ng/mL
Compound = C=CC(=O)N1CCC[C@@H](n2nc(-c3ccc(Oc4ccccc4)cc3)c3c(N)ncnc32)C1; system = male Wistar rat, spleen; conditions = oral, 50 mg/kg; Cmax = 188 ± 59.7 ng/g
Compound = Cc1nc(-c2cnc(NC(C)C)n(C)c2=O)ccc1Oc1ccnc(-c2cnn(C)c2)c1; system = Sprague-Dawley rat, male, plasma; conditions = intravenous, 1 mg/kg, crossover study; Cmax = 2910 ng/mL
Compound = O=c1oc2c(O)c(O)cc3c(=O)oc4c(O)c(O)cc1c4c23; system = rat, plasma; conditions = oral, 1000 mg/kg extract, possible metabolite or extract component; Cmax = 300 ± 60 ng/mL
Compound = CCc1cc(C(=O)NC)c2nccc(N3CCc4c(cc(Cn5ccnc5)cc4-c4cn(C)nc4C(F)(F)F)C3=O)c2c1; system = Sprague Dawley rat, male, plasma; conditions = oral, 100 mg/kg once daily, 7 days, toxicokinetic satellite group; Cmax = 13100 ng/mL
Compound = N=C(N)NCCNC(=O)C1(Nc2ccccc2)CCN(Cc2ccccc2)CC1; system = Sprague-Dawley rats (female), plasma; conditions = oral, 50 mg/kg; Cmax = 313 ± 82.7 ng/mL
Compound = Cc1ccc(S(=O)(=O)n2cc3c4c2C(=O)C(NCc2ccc(Cl)cc2)=CC4=NCC3)cc1; system = Sprague-Dawley rat, plasma; conditions = intravenous, 5 mg/kg; Cmax = 1180 ng/mL and 1360 ng/mL
Compound = NCCOCC(=O)N1CCC[C@H](C(=O)NCc2nc(-c3ccc(C(F)(F)F)cc3)cs2)C1; system = Sprague-Dawley rat, male, plasma; conditions = oral, 3 mg/kg; Cmax = 22 nM
Compound = COC(=O)C1=CO[C@@H](O[C@@H]2O[C@H](CO)[C@@H](O)[C@H](O)[C@H]2O)[C@@H]2C(CO)=CC[C@H]12; system = rat, plasma; conditions = oral, 500 mg/kg Eu extract, dosed as Eu extract; Cmax = 91.8 ± 18.8 ng/mL
Compound = CCCCCCCCc1ccc(CCC(N)(CO)CO)cc1; system = male Sprague-Dawley rat, plasma; conditions = oral, 1 mg/kg, single dose; Cmax = 4.19 ng/mL
Compound = C=CC(=O)N1CCC(Oc2cc3c(Nc4ccc(Cl)c(Cl)c4F)ncnc3cc2OC)CC1; system = Sprague-Dawley rat, male, plasma; conditions = oral, 2 mg/kg, 1 weeks pretreatment, together with: Schisandrin B 20 mg/kg daily pretreatment; Cmax = 1680 ± 139 ng/mL
Compound = COc1cc([C@H]2OC[C@H]3[C@@H]2CO[C@@H]3c2ccc(O[C@@H]3O[C@H](CO)[C@@H](O)[C@H](O)[C@H]3O)c(OC)c2)ccc1O[C@@H]1O[C@H](CO)[C@@H](O)[C@H](O)[C@H]1O; system = rat, plasma; conditions = oral, 500 mg/kg Eu extract; Cmax = 66.3 ± 30.9 ng/mL
Compound = Cc1cccc(CNC(=O)c2cn(CCNC(=O)c3ccccc3S)c3cc4c(cc3c2=O)OC(F)(F)O4)n1; system = Sprague-Dawley rat, male, plasma; conditions = intravenous, 5 mg/kg of parent compound; Cmax = 485 ± 32.6 ng/mL
Compound = O=C1c2ccncc2C(=O)c2c1[nH]c1ccccc21; system = Sprague-Dawley rat, male, plasma; conditions = intravenous, 1 mg/kg; Cmax = 618 ± 236 nM
Compound = CSc1ccccc1C(=O)NCCn1cc(C(=O)NCc2cccc(C)n2)c(=O)c2cc3c(cc21)OC(F)(F)O3; system = Sprague-Dawley rat, male, whole blood; conditions = intramuscular, 10 mg/kg of parent drug; Cmax = 5.08 ± 2.24 ng/mL
Compound = CN1CCC[C@H](CN2c3ccccc3Sc3ccccc32)C1.Cl; system = female Wistar rat, lymph node; conditions = oral, 16 mg/kg; Cmax = 3870 ng/g
Compound = CCOCc1nc(O)c(-c2nnc(Cc3ccc(Cl)cn3)o2)c(O)c1-c1c(OC)cccc1OC; system = rat, post surgery, plasma; conditions = oral, 0.06 mg/kg once daily, day 6 post surgery; Cmax = 65 nM
Compound = O=C1c2ccccc2C(=O)N1CCCN1CCN(C(c2ccc(F)cc2)c2ccc(F)cc2)CC1; system = male Sprague-Dawley rat, whole blood; conditions = oral, 10 mg/kg; Cmax = 24.2 ± 19.1 ng/mL
Compound = C1=C/COCc2cc(ccc2OCCN2CCCC2)Nc2nccc(n2)-c2cccc(c2)COC/1; assay = LC-MS/MS; system = Sprague-Dawley rat, male, plasma; conditions = oral, 36 mg/kg, together with: voriconazole 30 mg/kg oral; Cmax = 358 ± 214 ng/mL
Compound = COCC(=O)N1CCC[C@H](C(=O)NCc2nc(-c3ccccc3)cs2)C1; system = Sprague-Dawley rat, male, plasma; conditions = oral, 3 mg/kg; Cmax = 29000 nM
Compound = CCc1c2c(nc3ccc(OC(=O)N4CCC(N5CCCCC5)CC4)cc13)-c1cc3c(c(=O)n1C2)COC(=O)[C@]3(O)CC; system = Sprague-Dawley rats, plasma; conditions = iv, 10 mg/kg; Cmax = 3740 ± 420 nM
